Measured values from different studies.
Numbered parts are unrelated; each lists some results of a single study.
Chain of UniProt P35348 (whole entry, looked up): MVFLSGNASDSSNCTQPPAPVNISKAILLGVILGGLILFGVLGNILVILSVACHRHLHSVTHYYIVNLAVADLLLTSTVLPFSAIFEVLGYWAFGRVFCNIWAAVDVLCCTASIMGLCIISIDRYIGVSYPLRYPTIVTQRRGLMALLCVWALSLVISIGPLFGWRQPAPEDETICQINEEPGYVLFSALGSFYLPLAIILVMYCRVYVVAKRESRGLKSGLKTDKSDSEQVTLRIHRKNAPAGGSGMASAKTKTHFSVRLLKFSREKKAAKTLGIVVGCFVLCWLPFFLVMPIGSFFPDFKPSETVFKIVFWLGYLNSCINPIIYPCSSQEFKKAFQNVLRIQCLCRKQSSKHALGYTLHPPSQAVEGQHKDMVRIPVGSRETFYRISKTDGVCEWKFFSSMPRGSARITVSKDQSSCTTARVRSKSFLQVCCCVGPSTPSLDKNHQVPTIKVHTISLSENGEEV
Chain of UniProt P50406 (whole entry, looked up): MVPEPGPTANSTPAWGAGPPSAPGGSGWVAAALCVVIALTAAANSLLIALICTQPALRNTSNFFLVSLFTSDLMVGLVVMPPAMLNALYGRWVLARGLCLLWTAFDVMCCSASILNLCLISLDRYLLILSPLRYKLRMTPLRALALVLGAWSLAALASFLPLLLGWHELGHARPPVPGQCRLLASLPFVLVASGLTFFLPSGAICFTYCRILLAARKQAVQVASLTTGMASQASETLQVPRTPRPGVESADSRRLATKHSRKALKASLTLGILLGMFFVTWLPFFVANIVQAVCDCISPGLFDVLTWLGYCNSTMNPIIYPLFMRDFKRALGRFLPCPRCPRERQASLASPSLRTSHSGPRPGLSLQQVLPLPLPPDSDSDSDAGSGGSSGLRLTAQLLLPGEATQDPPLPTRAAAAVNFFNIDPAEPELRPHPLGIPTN
Chain of UniProt P28222 (whole entry, looked up): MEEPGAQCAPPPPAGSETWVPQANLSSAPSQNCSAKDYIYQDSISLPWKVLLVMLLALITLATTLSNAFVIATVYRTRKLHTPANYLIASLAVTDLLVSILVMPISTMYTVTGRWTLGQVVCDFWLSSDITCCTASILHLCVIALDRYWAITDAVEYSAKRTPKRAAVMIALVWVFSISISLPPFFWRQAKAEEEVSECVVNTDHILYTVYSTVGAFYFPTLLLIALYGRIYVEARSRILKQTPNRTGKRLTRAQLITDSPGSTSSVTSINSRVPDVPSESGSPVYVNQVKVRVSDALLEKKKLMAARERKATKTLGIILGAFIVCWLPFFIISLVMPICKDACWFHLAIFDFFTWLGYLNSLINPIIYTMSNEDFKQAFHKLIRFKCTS
Chain of UniProt Q9Y5N1 (whole entry, looked up): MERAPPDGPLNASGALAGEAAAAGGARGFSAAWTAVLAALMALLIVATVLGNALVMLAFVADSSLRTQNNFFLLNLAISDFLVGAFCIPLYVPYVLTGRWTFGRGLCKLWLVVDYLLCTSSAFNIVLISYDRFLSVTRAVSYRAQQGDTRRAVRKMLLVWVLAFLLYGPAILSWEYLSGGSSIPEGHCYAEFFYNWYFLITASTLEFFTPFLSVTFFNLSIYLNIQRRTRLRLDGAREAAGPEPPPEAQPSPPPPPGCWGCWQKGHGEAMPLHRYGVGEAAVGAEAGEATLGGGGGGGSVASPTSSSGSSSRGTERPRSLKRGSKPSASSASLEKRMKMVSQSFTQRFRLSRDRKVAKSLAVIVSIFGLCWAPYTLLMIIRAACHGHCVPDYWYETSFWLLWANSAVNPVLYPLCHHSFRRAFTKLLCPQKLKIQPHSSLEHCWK
Chain of UniProt P08912 (whole entry, looked up): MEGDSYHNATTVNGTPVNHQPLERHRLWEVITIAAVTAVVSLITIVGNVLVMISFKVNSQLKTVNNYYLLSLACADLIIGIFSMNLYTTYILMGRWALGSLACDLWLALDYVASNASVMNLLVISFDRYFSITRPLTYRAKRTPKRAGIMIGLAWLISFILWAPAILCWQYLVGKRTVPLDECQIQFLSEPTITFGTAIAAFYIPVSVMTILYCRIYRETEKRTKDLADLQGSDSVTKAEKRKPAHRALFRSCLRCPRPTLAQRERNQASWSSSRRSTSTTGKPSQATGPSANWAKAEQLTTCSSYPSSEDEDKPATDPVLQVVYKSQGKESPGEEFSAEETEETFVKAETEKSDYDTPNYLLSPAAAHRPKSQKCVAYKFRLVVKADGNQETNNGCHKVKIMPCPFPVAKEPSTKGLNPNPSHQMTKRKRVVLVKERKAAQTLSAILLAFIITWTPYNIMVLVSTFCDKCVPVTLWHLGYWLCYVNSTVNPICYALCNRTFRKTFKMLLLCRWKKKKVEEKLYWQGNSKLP
Chain of UniProt P14416 (whole entry, looked up): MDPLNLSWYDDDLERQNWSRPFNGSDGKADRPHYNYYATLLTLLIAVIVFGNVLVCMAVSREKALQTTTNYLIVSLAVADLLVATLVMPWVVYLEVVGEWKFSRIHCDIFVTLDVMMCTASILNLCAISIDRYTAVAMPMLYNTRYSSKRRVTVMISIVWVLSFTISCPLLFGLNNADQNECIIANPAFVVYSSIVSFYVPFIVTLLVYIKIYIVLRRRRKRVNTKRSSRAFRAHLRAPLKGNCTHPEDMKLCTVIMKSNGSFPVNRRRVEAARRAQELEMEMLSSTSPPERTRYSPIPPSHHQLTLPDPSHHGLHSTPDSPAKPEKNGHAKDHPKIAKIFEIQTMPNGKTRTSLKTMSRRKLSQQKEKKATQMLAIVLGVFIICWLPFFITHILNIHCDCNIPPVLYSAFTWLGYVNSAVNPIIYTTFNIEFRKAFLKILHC

Sample 1
Cell line: A-375
Tested at: 100 µM
Time: 36 h
Compound	viability
CCCCCCCCCCCCCCCC[N+](C)(C)CCN(Cc1ccc(OC)cc1)c1ncccn1	1.88%
CC(C)OC(=O)C(C(=O)OC(C)C)=C1SC=CS1	10.4%
COc1ccc(CN(CCN(C)C)c2ccccn2)cc1	79.6%
COc1cc(C(=O)NC2CCCNC2)cc(OC)c1OC (stereo not drawn)	103%
CC(S)C(=O)NCC(=O)O (stereo not drawn)	105%
CO/N=C(\C(=O)N[C@@H]1C(=O)N2C(C(=O)OC(C)OC(C)=O)=C(COC(N)=O)CS[C@H]12)c1ccco1 (stereo partly drawn)	117%

Sample 2
Target: Myosin light chain kinase, smooth muscle (MYLK, Homo sapiens, UniProt Q15746)
Chain of UniProt Q15746 (whole entry, looked up): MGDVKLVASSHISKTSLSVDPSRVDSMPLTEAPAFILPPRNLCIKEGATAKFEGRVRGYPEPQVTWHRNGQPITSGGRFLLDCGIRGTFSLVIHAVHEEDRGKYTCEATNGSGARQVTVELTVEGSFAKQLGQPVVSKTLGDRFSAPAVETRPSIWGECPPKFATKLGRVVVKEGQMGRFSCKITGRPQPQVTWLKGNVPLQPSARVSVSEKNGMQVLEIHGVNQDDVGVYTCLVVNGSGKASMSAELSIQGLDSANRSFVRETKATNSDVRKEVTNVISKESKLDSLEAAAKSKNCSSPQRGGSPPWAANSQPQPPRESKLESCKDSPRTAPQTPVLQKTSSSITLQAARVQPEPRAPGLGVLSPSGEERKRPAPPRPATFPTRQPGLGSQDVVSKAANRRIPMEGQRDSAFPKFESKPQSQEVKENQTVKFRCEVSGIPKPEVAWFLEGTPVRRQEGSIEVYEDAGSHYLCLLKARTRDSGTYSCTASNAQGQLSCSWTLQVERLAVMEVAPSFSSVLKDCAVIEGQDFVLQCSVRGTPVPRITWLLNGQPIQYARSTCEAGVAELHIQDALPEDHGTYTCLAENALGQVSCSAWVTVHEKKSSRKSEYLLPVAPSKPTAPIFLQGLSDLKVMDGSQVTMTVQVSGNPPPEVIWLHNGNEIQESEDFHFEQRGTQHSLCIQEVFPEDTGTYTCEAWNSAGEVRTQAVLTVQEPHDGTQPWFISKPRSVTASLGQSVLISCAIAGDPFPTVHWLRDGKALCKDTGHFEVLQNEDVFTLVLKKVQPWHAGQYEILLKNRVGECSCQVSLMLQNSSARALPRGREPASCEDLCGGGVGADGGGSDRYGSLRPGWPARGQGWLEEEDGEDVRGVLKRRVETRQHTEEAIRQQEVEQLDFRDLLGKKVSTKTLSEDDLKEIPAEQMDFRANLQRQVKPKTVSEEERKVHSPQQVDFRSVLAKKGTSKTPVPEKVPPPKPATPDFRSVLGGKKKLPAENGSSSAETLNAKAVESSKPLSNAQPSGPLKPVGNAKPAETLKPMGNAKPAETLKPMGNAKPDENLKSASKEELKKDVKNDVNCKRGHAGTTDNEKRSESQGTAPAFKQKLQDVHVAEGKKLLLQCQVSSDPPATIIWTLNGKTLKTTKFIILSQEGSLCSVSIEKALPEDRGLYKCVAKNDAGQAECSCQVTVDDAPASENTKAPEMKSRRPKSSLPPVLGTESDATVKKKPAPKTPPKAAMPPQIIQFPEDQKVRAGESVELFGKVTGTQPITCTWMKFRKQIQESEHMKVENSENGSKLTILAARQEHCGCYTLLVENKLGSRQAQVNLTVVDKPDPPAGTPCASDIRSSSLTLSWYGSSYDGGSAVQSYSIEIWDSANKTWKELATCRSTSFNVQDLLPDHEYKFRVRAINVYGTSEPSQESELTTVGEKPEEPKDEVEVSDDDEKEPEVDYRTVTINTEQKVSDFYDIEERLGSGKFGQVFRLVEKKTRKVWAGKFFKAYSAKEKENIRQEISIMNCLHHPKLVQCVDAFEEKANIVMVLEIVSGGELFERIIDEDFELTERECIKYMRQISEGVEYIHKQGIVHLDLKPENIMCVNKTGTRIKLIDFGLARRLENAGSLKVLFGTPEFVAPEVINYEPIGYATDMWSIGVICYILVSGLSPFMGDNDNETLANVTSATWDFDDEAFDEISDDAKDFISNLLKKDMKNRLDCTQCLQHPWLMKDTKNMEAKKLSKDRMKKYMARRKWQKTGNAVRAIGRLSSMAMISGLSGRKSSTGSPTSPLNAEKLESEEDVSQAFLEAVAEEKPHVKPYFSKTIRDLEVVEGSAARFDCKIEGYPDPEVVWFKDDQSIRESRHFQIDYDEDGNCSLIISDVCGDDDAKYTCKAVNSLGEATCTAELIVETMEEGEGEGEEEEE
Effect on: enzyme activity
Action: inhibitor
Tested at: 0.5 µM
Baseline: control
SMILES	remaining activity [%]
CNC(=O)c1cc(Oc2ccc(NC(=O)Nc3ccc(Cl)c(C(F)(F)F)c3)cc2)ccn1	93.7
C#Cc1cccc(Nc2ncnc3cc(OCCOC)c(OCCOC)cc23)c1	84.7
Cc1ccc(NC(=O)c2ccc(CN3CCN(C)CC3)cc2)cc1Nc1nc(-c2cccnc2)cs1	96.2
Nc1ncnc2n[nH]c(Nc3ccc(F)cc3)c12	94.7
Cc1ccc(Nc2nccc(N(C)c3ccc4c(C)n(C)nc4c3)n2)cc1S(N)(=O)=O	93
O=C(CCCc1ccc(-c2ccccc2F)cc1)Nc1ccc(O)cc1	98.6
Nc1ccc2ncnc(NCCc3ccc(Oc4ccccc4)cc3)c2c1	98.5
O=c1c2ccccc2[nH]c(=S)n1CCN1CCC(=C(c2ccc(F)cc2)c2ccc(F)cc2)CC1	96.2
CN(C)c1ccc(C=C2C(=O)Nc3ccccc32)cc1	90.5
Cc1nc(-c2ccccc2)c(-c2ccncc2)o1	101
Nc1[nH]nc2nc3ccccc3nc12	93.6
COc1ccc(CNC(=O)Nc2ncc([N+](=O)[O-])s2)cc1	94.1
COc1ccc(OC)c2c(=S)c3ccccc3[nH]c12	89.8
COc1ccc(C(=O)Nc2sc3c(c2C(N)=O)CCCC3)cc1OC	41.2
CC(C)[C@H](CO)Nc1nc(Nc2cc(N)cc(Cl)c2)c2ncn(C(C)C)c2n1	81.3

Sample 3
Host: human
Matrix: microsomes or S9
Tested at: 2 µM
Time: 0.5 h
SMILES	remaining compound
Cc1c(-c2cc(-c3cnn(C)c3C)n(Cc3ccc(Cl)c(Cl)c3)n2)cnn1C	7.26%
Cc1sc2c(c1C)c1nnc(SCCN(C)C)n1c1nnc(SCCN(C)C)n21	57.4%
O=C(Nc1cnccn1)c1cnc(-c2ncccn2)s1	> 100%
CCc1nc(Cl)c2c3c(sc2n1)CC(C)CC3 (stereo not drawn)	1.82%
Cc1cc(Cl)nc(NCCCc2nc(C(C)C)no2)n1	27.3%

Sample 4
Structure (SMILES): CNC(=O)c1cc(C(=O)N[C@H]2[C@@H]3COC[C@@H]32)cc2c1O[C@@H](CF)[C@@H]2c1ccccc1
Effect on: binding
Method: radioligand binding
Tested at: 10 µM
target	inhibition [%]
ADRA1A (Homo sapiens, UniProt P35348)	7.39
CHRM5 (Homo sapiens, UniProt P08912)	18
HTR6 (Homo sapiens, UniProt P50406)	-1.21
DRD2 (Homo sapiens, UniProt P14416)	-10.2
HTR2B (Homo sapiens, UniProt P41595)	-14.1
HRH3 (Homo sapiens, UniProt Q9Y5N1)	-5.65
HTR1B (Homo sapiens, UniProt P28222)	-8.28

Excerpt of the above (sample 1):
Compound	viability
CC(C)OC(=O)C(C(=O)OC(C)C)=C1SC=CS1	10.4%
COc1ccc(CN(CCN(C)C)c2ccccn2)cc1	79.6%
COc1cc(C(=O)NC2CCCNC2)cc(OC)c1OC (stereo not drawn)	103%
CC(S)C(=O)NCC(=O)O (stereo not drawn)	105%
CO/N=C(\C(=O)N[C@@H]1C(=O)N2C(C(=O)OC(C)OC(C)=O)=C(COC(N)=O)CS[C@H]12)c1ccco1 (stereo partly drawn)	117%
